Published values collected from several papers.
Parts stem from different laboratories: compare values within a part only.

Series 1
Target: Max dimerization protein 1, bHLH-zipper, MAX partner unstated (MXD1, Homo sapiens, UniProt Q05195, residues 56-136)
Method: protein-binding microarray
Form: double-stranded DNA, one strand shown
Sample: in vitro
Concentration: not given
Setting: k-mer, scored over probes, only values ≥0.25
Direction: higher = stronger binding
Residues (chain): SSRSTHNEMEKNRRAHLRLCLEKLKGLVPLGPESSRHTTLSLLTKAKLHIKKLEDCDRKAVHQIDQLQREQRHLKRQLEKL
With `CCACCCCC` the E-score was 0.311.
The E-score of `ACGTGCAA` is reported as 0.37.
With `CATGGGGG` the E-score was 0.392.
`ATGGCATG` has an E-score of 0.34.
`AGCACACG` has an E-score of 0.283.
The E-score of `ATGTGCGG` is reported as 0.331.
`CATGTGGA` gave an E-score of 0.454.
For `CAGCGTGC`, the E-score was 0.39.
For `ACGACCCA`, the E-score was 0.266.
The E-score of `CTCCCCTC` is reported as 0.264.
`TGCCGGCA` gave an E-score of 0.29.
`CGCCACAC` has an E-score of 0.316.
The E-score of `CATGTTAA` is reported as 0.298.
With `ACCCACCT` the E-score was 0.303.
`GCGTGTCC` gave an E-score of 0.356.
The E-score of `GCATGCTA` is reported as 0.354.
For `ACATGCAG`, the E-score was 0.275.

Series 2
Target: Histone acetyltransferase KAT6A, both winged helices, GST fusion (KAT6A, Homo sapiens, UniProt Q92794, residues 1-181)
Method: protein binding microarray
Form: double-stranded DNA, one strand shown
Sample: in vitro
Concentration: not given
Setting: 8-mer, flanks averaged, mean of 2 arrays, mostly near background
Relative to: not given
Direction: higher = stronger binding
Residues (chain): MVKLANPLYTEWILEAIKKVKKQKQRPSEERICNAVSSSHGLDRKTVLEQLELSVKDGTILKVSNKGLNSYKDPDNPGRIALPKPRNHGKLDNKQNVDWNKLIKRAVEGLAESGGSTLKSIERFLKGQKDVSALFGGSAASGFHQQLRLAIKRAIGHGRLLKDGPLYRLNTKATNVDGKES
`AGAACGCC` has an E-score of -0.0121.
`ATCTTCTG` has an E-score of -0.0257.
With `GTGGTTGA` the E-score was 0.00845.
`ATGTCACC` gave an E-score of -0.0362.
`ACGCACCG` has an E-score of 0.202.
With `CCCAGCCA` the E-score was -0.237.
`AACCCACA` has an E-score of -0.0796.
For `TGCAGGAA`, the E-score was -0.126.
`GCCTGCTA` gave an E-score of -0.0944.
With `GCGAGAGA` the E-score was -0.0182.
The E-score of `AGCAGTAA` is reported as -0.249.
`AAGCGGCG` has an E-score of 0.321.
`GGTCAATA` has an E-score of -0.162.
For `GTACATCA`, the E-score was 0.0931.
The E-score of `GCAACTAC` is reported as -0.0199.
`ACAAGTAA` has an E-score of -0.109.
`AACACAGG` gave an E-score of -0.145.
For `CGTAATTA`, the E-score was 0.0407.
`AATCAGGG` has an E-score of -0.189.
With `TATAGTAA` the E-score was 0.0351.
`CATCACGA` has an E-score of -0.134.
`CGCGGCCC` has an E-score of 0.326.
`ACAAACCC` has an E-score of -0.0367.
`AACATTTG` gave an E-score of -0.122.

Series 3
Target: Interferon regulatory factor 5, full length, phosphomimetic (IRF5, Homo sapiens, UniProt Q13568-2, residues 1-514, S451D/S453D/S456D/S462D)
Method: protein-binding microarray
Form: double-stranded DNA, one strand shown
Sample: in vitro
Concentration: 940 nM top
Setting: 60-bp whole probe
With: salmon DNA 0.4 mg/ml
Relative to: random background probes
Direction: higher = stronger binding
All sequences stand within: GCCTAGCAC … GTCTTGATTCGCTTGACGCTGCTG
`GACGATCCCAGACTGGAGACGTGCTAG`: “fitted relative affinity” -0.674 z-score.
For `TTAGGTATCGCGTATCGGTTAGTGCTA`, “fitted relative affinity” read 2.96 z-score.
`GACGGACTGCTACTGCTGAAGTGCTAG` — result for “fitted relative affinity”: -0.648 z-score.
`TTAGGTATCGGGTTTCGGTTGGTGCTA`: “fitted relative affinity” 8.55 z-score.
For `TTATATTTCGGGTTTCGATTAGTGCTA`, “fitted relative affinity” read 6.37 z-score.
For `TTCCTTATTGCTTCCTCTTTGTGCTAG`, “fitted relative affinity” read 1.92 z-score.
`TCATTTTTAGATATCTTACTGTGCTAG`: “fitted relative affinity” 0.25 z-score.
Under “fitted relative affinity”, `GACGATATCGGGACTGGAGTCGTGCTA` is recorded as 0.0664 z-score.
`GGATGAGCAAGGGGGCCTCGGTGCTAG`: “fitted relative affinity” -0.0525 z-score.
Under “fitted relative affinity”, `TCACTTTCCTTACTTCCCACTGTGCTA` is recorded as 2.47 z-score.
Under “fitted relative affinity”, `GACGGTCTCGGTCTCGGGATGTGCTAG` is recorded as 3.77 z-score.
`TTAGGACTGGGGAATGGGTTAGTGCTA` — result for “fitted relative affinity”: -0.415 z-score.
Under “fitted relative affinity”, `TCACTCGTGTTTTTCTCACTGTGCTAG` is recorded as 0.763 z-score.
`GACGATTCCAGTTTCGGGACGTGCTAG`: “fitted relative affinity” 4.64 z-score.
Under “fitted relative affinity”, `GGGGTTTCGGATGGGATGTCGTGCTAG` is recorded as 6.62 z-score.
Under “fitted relative affinity”, `TTAGGTATCGGGTTTCAGTTAGTGCTA` is recorded as 6.17 z-score.
`GACGGTTTCCTTCTCCAGACGTGCTAG`: “fitted relative affinity” 1.61 z-score.

Series 4
Target: RNA binding protein fox-1 homolog 2, RRM domain, GST-SBP tag (RBFOX2, Homo sapiens, UniProt O43251-10, residues 100-194)
Method: RNA Bind-n-Seq
Form: RNA
Sample: in vitro
Concentration: 365 nM
Setting: natural RNA segment, single round, ends assumed
Relative to: no-protein control
Direction: higher = stronger binding
All sequences stand within: GGGAGUUCUACAGUCCGACGAUC … UGGAAUUCUCGGGUGCCAA
Residues (chain): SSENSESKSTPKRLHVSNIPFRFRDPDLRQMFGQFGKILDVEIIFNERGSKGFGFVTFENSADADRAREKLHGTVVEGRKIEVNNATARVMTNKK
Under “RBNS enrichment (R)”, `GGACCUUUGGAUAAGAAACCAGUGUUCUUAACUGCUGAGCCAUCUCUCCAGUUAGCUAACUGGAUUCUUAAGGAUGAUUCUAGCAAAUUAUAAGAAUAAAUAGUAAAAAG` is recorded as 0.349.
`CCUAAUCCAGGAGUGCCCCCUCACUUGUCACCGAGUCUCCUCUAUUGCCUGCCUCUGCUGUGAAUUAACUUGUUCUGUGUAUUAAACUGGGCCUGACCCCUCUGCCCACG` — result for “RBNS enrichment (R)”: 1.03.
`AGAUACCUGCCAGCACUUCUGCAAGCUGAAAUUUACAGAAGCAAAUUCACCAGAAGGGAAACAUCUCAGGCCAACAUAGGCAAAUGAAAAGGGCUAUUAAAAUAUUUUUA` — result for “RBNS enrichment (R)”: 0.464.
`UGAGUUAGGAAAAUUACAUUCCUGGUUCUGUAUUGAGGAGAAGGAUGUAUAAAGCAACAUGAAACAUUAGCCCUCCUUUUAUUUUAAAGACUAAUGUUAAUUGUUCUUAA`: “RBNS enrichment (R)” 0.363.
Under “RBNS enrichment (R)”, `UAUCUGUCUUUGUUCACUUAUGAAGCCGGUAACUGCAGCAGUAUGUUGGUGAUGUCAUGAUGCACAGAAGUCCCAUGUGGAGUGUUUUUCCCACACUGACAACUUGGCUU` is recorded as 0.508.
`UGCAAUAUUAUAAAAGAAGUAAUCUUAUUUUAGCUCAUUCUGUGACAUGUGCGACUCUUAAGAAAGCCAUACUUAAUGGUGGUGGUUUUUUUUAGAUCUUAUAUUGUGUU` — result for “RBNS enrichment (R)”: 0.617.
`ACUCUAUUUAACCUUGGACACACUAAUAAGGUUUUAUUUUGAUUGUGUUCGUUUCCCCCCCCCCAAUAGUAAAAUUUCUCCUCCUUUAACUCCUCCUACCCCCCAAGGUA` — result for “RBNS enrichment (R)”: 0.833.
For `AUAUCUGCUGGUUUAAAUUCUGUCAUAUUUCACUUCUAGCCUUUUAGUAUGGCAAAUCAUAUUUUACUUUUACUUAAGCAUUUGUAAUUUGGAGUAUCUGGUACUAGCUA`, “RBNS enrichment (R)” read 0.377.
